Measurements of several laboratories.
Protocols differ between the studies behind these lines.
Organism: Klebsiella pneumoniae

SMILES | assay | system | setting | MIC
CC[C@H](C)[C@H](NC(=O)[C@@H](CCCNC(=N)N)NC(=O)[C@H](CCCNC(=N)N)NC(=O)[C@H](Cc1ccccc1)NC(=O)[C@H](Cc1c[nH]c2ccccc12)NC(=O)[C@H](CCCNC(=N)N)NC(=O)[C@@H]1CCCN1C(=O)[C@H](CCCNC(=N)N)NC(=O)[C@@H]1CCCN1C(=O)[C@H](CC(C)C)NC(=O)[C@H](Cc1ccc(O)cc1)NC(=O)[C@@H]1CCCN1C(=O)[C@@H]1CCCN1C(=O)[C@H](CCCCN)NC(=O)[C@H](CC(=O)O)NC(=O)[C@@H](N)C(C)C)C(=O)N[C@@H](Cc1ccc(O)cc1)C(=O)N[C@@H](CC(N)=O)C(=O)N[C@H](CCCNC(=N)N)C(N)=O | broth microdilution | DSM 681 | 18 h, 37 °C, 25% MHB2 | 4 µg/mL
CCCCCCCC(=O)N[C@@H](CCN)C(=O)N[C@H](C(=O)N[C@@H](CCN)C(=O)N[C@H]1CCNC(=O)[C@H]([C@@H](C)O)NC(=O)[C@H](CCN)NC(=O)[C@H](CCN)NC(=O)[C@H](Cc2ccccc2)NC(=O)[C@@H](CCCCCC)NC(=O)[C@H](CCN)NC1=O)[C@@H](C)O | broth microdilution | ATCC 13883, colistin-susceptible |  | 1 to 2 µg/mL
CC[C@H](C)[C@H](NC(=O)[C@@H](CCCNC(=N)N)NC(=O)[C@H](CCCNC(=N)N)NC(=O)[C@@H]1CCCN1C(=O)[C@@H]1CCCN1C(=O)[C@H](CCCNC(=N)N)NC(=O)[C@@H]1CCCN1C(=O)[C@H](CCCNC(=N)N)NC(=O)[C@@H]1CCCN1C(=O)[C@H](CC(C)C)NC(=O)[C@H](Cc1ccc(O)cc1)NC(=O)[C@@H]1CCCN1C(=O)[C@@H]1CCCN1C(=O)[C@H](CCCCN)NC(=O)[C@H](CC(=O)O)NC(=O)[C@@H](N)C(C)C)C(=O)N[C@@H](Cc1cc(I)c(O)c(I)c1)C(=O)N[C@@H](CC(N)=O)C(=O)N[C@H](CCCNC(=N)N)C(N)=O | broth microdilution | DSM 681 | 18 h, 37 °C, 25% MHB2 | 16 µg/mL
CC[C@H](C)[C@H](NC(=O)[C@H](C)NC(=O)[C@@H](NC(=O)[C@H](CC(=O)O)NC(=O)[C@H](CCCCN)NC(=O)[C@H](CO)NC(=O)[C@@H](NC(=O)[C@H](CC(N)=O)NC(=O)[C@H](C)NC(=O)[C@@H](NC(=O)[C@H](CCC(=O)O)NC(=O)[C@H](CCCCN)NC(=O)[C@@H](NC(=O)[C@@H](NC(=O)[C@H](Cc1c[nH]cn1)NC(=O)[C@H](CCCCN)NC(=O)[C@@H](NC(=O)[C@H](CCCCN)NC(=O)[C@H](CCCCN)NC(=O)[C@@H](NC(=O)[C@H](CC(C)C)NC(=O)[C@H](CCCCN)NC(=O)[C@H](CC(N)=O)NC(=O)[C@H](Cc1ccccc1)NC(=O)[C@H](CCCNC(=N)N)NC(=O)[C@H](CCCCN)NC(=O)[C@H](CCCNC(=N)N)NC(=O)[C@H](Cc1ccccc1)NC(=O)CN)C(C)C)C(C)C)[C@@H](C)O)[C@@H](C)CC)[C@@H](C)O)C(C)C)C(C)C)C(=O)N[C@H](C(=O)N[C@@H](C)C(=O)NCC(=O)N[C@@H](CO)C(=O)NCC(=O)N[C@H](C(=O)N[C@@H](C)C(=O)N[C@H](C(=O)NCC(=O)N[C@@H](C)C(=O)N[C@@H](C)C(=O)N[C@@H](CCSC)C(N)=O)C(C)C)C(C)C)C(C)C |  | DSM 30104, CAMHB with 10% mouse serum | 150 mM NaCl | 1 µg/mL
CC1(C)[C@H](NC(=O)/C(=N\OCC(=O)N2CCC(C(=O)O)CC2)c2csc(N)n2)C(=O)N1OS(=O)(=O)O | agar dilution | 2146, NDM-1 |  | > 64 µg/mL
C=C1NC(=O)C2C[S+]([O-])CC3NC(=O)C(CSC(C)C(NC(=S)C(Cc4cnc[nH]4)NC(=O)c4csc(C(C)NC(C)=O)n4)C(=O)N[C@H](CC(C)C(=O)NC(=O)CC(C(=O)O)NC(=O)C(C)NC3=O)C(=O)N2)NC(=O)[C@@H]2CCCN2C(=O)[C@@H](CC(C)C)NC1=O (some centres unmarked) | bacterial growth | ATCC 12657 |  | > 32 µg/mL
c1ccc2c(c1)nc(CNCC13CC4CC(CC(C4)C1)C3)n2CC1CCCCC1 |  | ATCC 700603 |  | > 128 µg/mL
CC1(C)[C@H](NC(=O)/C(=N\OC2(C(=O)O)CCCC2)c2csc(N)n2)C(=O)N1OS(=O)(=O)O | agar dilution | 09-20, NDM-1 |  | 0.25 µg/mL
CC[C@H](C)[C@H](NC(=O)[C@@H](CCCNC(=N)N)NC(=O)[C@H](CCCNC(=N)N)NC(=O)[C@H](CCC(N)=O)NC(=O)[C@H](Cc1c[nH]c2ccccc12)NC(=O)[C@H](CCCNC(=N)N)NC(=O)[C@@H]1CCCN1C(=O)[C@H](CCCNC(=N)N)NC(=O)[C@@H]1CCCN1C(=O)[C@H](CC(C)C)NC(=O)[C@H](Cc1ccc(O)cc1)NC(=O)[C@@H]1CCCN1C(=O)[C@@H]1CCCN1C(=O)[C@H](CCCCN)NC(=O)[C@H](CC(=O)O)NC(=O)[C@@H](N)C(C)C)C(=O)N[C@@H](Cc1ccc(O)cc1)C(=O)N[C@@H](CC(N)=O)C(=O)N[C@H](CCCNC(=N)N)C(N)=O | broth microdilution | DSM 681 | 18 h, 37 °C, 25% MHB2 | 4 µg/mL
COc1ccc2ccc(O)c(/C=N/[C@H]3CCCC[C@H]3/N=C/c3cccc(OC)c3O)c2c1 | bacterial growth, broth microdilution | carbapenem-resistant clinical isolate |  | > 40 µM
C#CCNC(=O)[C@H]1NC(=O)[C@H]2NC(=O)[C@H](NC(=O)[C@@H]3NC(=O)[C@H](CC(N)=O)NC(=O)[C@H](NC(=O)[C@@H](CC(C)C)NC)[C@H](O)c4ccc(c(Cl)c4)Oc4cc3cc(c4O[C@@H]3O[C@H](CO)[C@@H](O)[C@H](O)[C@H]3O[C@H]3C[C@](C)(N)[C@H](O)[C@H](C)O3)Oc3ccc(cc3Cl)[C@H]2O)c2ccc(O)c(c2)-c2c(O)cc(O)cc21 | broth microdilution | ATCC 27736, cation-adjusted Mueller-Hinton broth | 18 to 20 h, 37 °C, 0.002% polysorbate 80 | > 128 µg/mL
CC1(C)[C@H](NC(=O)/C(=N\OCc2c(Cl)cccc2Cl)c2csc(N)n2)C(=O)N1OS(=O)(=O)O | agar dilution | 09-20, NDM-1 |  | 4 µg/mL
CCn1c(-c2ccc(OC)cc2)c(-c2ccc(OC)cc2)n(CC)c1=[Se] | broth microdilution | carbapenem-resistant BAA-1705 | 24 h | > 40 µM
CC(C)(O/N=C(\C(=O)N[C@@H]1C(=O)N(OS(=O)(=O)O)C1(C)C)c1nsc(N)n1)C(=O)O | agar dilution | 2146, NDM-1 |  | > 64 µg/mL
N=C(N)NCCC[C@@H]1NC(=O)[C@@H](CCCNC(=N)N)NC(=O)[C@H](CCCNC(=N)N)NC(=O)[C@@H](C(c2ccccc2)c2ccccc2)NC(=O)[C@@H](C(c2ccccc2)c2ccccc2)NC(=O)[C@@H](C(c2ccccc2)c2ccccc2)NC(=O)[C@@H](CCCNC(=N)N)NC1=O |  | ATCC BAA1705, KPC-2 carbapenem-resistant |  | > 64 µg/mL
COc1ccc2ccc(O)c(/C=N/[C@H]3CCCC[C@H]3/N=C/c3ccc(C)cc3O)c2c1 | bacterial growth, broth microdilution | carbapenem-resistant |  | > 40 µM
CCCCCCCC(=O)N[C@@H](CCN)C(=O)N[C@H](C(=O)N[C@@H](CCN)C(=O)N[C@H]1CCNC(=O)[C@H]([C@@H](C)O)NC(=O)[C@H](CCN)NC(=O)[C@H](CCN)NC(=O)[C@H](CCCCCC)NC(=O)[C@@H](Cc2ccccc2)NC(=O)[C@H](CCN)NC1=O)[C@@H](C)O | broth microdilution | ATCC 19606 |  | 0.25 to 0.5 µg/mL
N=C(N)NCCC[C@@H]1NC(=O)[C@H](CCCNC(=N)N)NC(=O)[C@@H](CCCNC(=N)N)NC(=O)[C@@H](CCCNC(=N)N)NC(=O)[C@@H](C(c2ccccc2)c2ccccc2)NC(=O)[C@H](Cc2c[nH]c3ccccc23)NC(=O)[C@@H](C(c2ccccc2)c2ccccc2)NC1=O |  | 1188718, multidrug-resistant |  | > 64 µg/mL
CCCC[C@H](NC(=O)[C@H](Cc1ccc(O)cc1)NC(=O)[C@@H]1CCCN1C(=O)[C@@H]1CCCN1C(=O)[C@H](CCCCN)NC(=O)[C@H](CC(=O)O)NC(=O)[C@@H](N)C(C)C)C(=O)N1CCC[C@H]1C(=O)N[C@@H](CCCNC(=N)N)C(=O)N1CCC[C@H]1C(=O)N[C@@H](CCCNC(=N)N)C(=O)N1CCC[C@H]1C(=O)N1CCC[C@H]1C(=O)N[C@@H](CCCNC(=N)N)C(=O)N[C@H](CCCNC(=N)N)C(=O)N[C@H](C(=O)N[C@@H](Cc1ccc(O)cc1)C(=O)N[C@@H](CC(N)=O)C(=O)N[C@H](CCCNC(=N)N)C(N)=O)[C@@H](C)CC | broth microdilution | DSM 681 | 18 h, 37 °C, 25% MHB2 | 4 µg/mL
COc1ccc2ccc(O)c(/C=N/[C@H]3CCCC[C@H]3/N=C/c3cc(C(C)(C)C)cc(C(C)(C)C)c3O)c2c1 | bacterial growth, broth microdilution | carbapenem-resistant clinical isolate |  | > 40 µM
C#CCO/N=C(\C(=O)N[C@@H]1C(=O)N(OS(=O)(=O)O)C1(C)C)c1nsc(N)n1 | agar dilution | 09-20, NDM-1 |  | 32 µg/mL
CCCCCCCC(=O)N[C@@H](CCN)C(=O)N[C@H](C(=O)N[C@@H](CCN)C(=O)N[C@H]1CCNC(=O)[C@H]([C@@H](C)O)NC(=O)[C@H](CCN)NC(=O)[C@H](CCN)NC(=O)[C@H](CC(C)C)NC(=O)[C@@H](Cc2c(F)c(F)c(F)c(F)c2F)NC(=O)[C@H](CCN)NC1=O)[C@@H](C)O | broth microdilution | ATCC 13883, colistin-susceptible |  | 4 µg/mL
O=C(c1ccccc1O)c1[nH]c(Cl)c(Cl)c1-n1c(C(=O)c2ccccc2O)cc(Cl)c1Cl | microbial growth | ATCC700603 |  | > 64 µM

For quick reference, copied from above:
SMILES | assay | system | setting | MIC
CCCCCCCC(=O)N[C@@H](CCN)C(=O)N[C@H](C(=O)N[C@@H](CCN)C(=O)N[C@H]1CCNC(=O)[C@H]([C@@H](C)O)NC(=O)[C@H](CCN)NC(=O)[C@H](CCN)NC(=O)[C@H](Cc2ccccc2)NC(=O)[C@@H](CCCCCC)NC(=O)[C@H](CCN)NC1=O)[C@@H](C)O | broth microdilution | ATCC 13883, colistin-susceptible |  | 1 to 2 µg/mL
